Published values gathered from unrelated publications.
Lines come from different studies, so protocols differ. Numbers after ± are the reported error.

Structure (SMILES) = CN[C@@](C)(C[18F])C(=O)O; system = SCID mouse SK-OV-3 xenograft, muscle; conditions = 30 min, post injection; measurement = tissue uptake; result = 0.8 ± 0.2 %ID/g
Structure (SMILES) = CCCCCCCCCCCC(=O)NCCCC[C@H](NC(=O)[C@@H](NC(=O)[C@@H](NC(=O)[C@H](C)NC(=O)[C@H](C)NC(=O)[C@H](CCCCN)NC(=O)[C@H](CCCCN)NC(=O)[C@H](CS)NC(=O)[C@H](CCCCN)NC(=O)[C@@H]1CCCN1C(=O)[C@H](CC(C)C)NC(=O)[C@@H](NC(=O)[C@H](Cc1c[nH]c2ccccc12)NC(=O)[C@H](CC(C)C)NC(=O)[C@@H](N)CCCCN)C(C)C)C(C)C)C(C)C)C(N)=O; test = three-compartment model; system = Sprague Dawley rat, plasma; conditions = intravenous, 2.5 mg; measurement = fast compartment volume; result = 12 mL
Structure (SMILES) = [123I]c1cncc(OC[C@@H]2CCN2)c1; test = SPECT; system = human, brain cortex; conditions = intravenous bolus, 8.6 mCi; scale = reference: plasma; measurement = tissue/plasma ratio; result = 18.3
Structure (SMILES) = CC(C)C[C@H](NC(=O)[C@H](CCC(N)=O)NC(=O)[C@H](CCCNC(=N)N)NC(=O)[C@H](CO)NC(=O)[C@H](CO)NC(=O)[C@H](CC(C)C)NC(=O)[C@@H](NC(=O)CNC(=O)[C@@H]1CCCN1C(=O)[C@@H](N)CCCNC(=N)N)C(C)C)C(=O)NCC(=O)N[C@@H](CC(C)C)C(=O)N1CCC[C@H]1C(=O)NCC(=O)N1CCC[C@H]1C(=O)N1CCC[C@H]1C(=O)N[C@@H](CC(=O)O)C(=O)N[C@H](C(=O)N1CCC[C@H]1C(=O)N[C@@H](CC(=O)O)C(=O)N[C@@H](Cc1c[nH]cn1)C(=O)N[C@@H](C)C(=O)N[C@@H](C)C(=O)N[C@@H](Cc1ccc(O)cc1)C(=O)N[C@@H](Cc1c[nH]cn1)C(=O)N1CCC[C@H]1C(=O)N[C@@H](Cc1ccccc1)C(=O)O)C(C)C; test = LC-MS/MS; system = human serum; conditions = concentration not given, 4 h, room temperature, tube without gel separator; scale = reference: initial concentration; measurement = change in serum concentration; result = 139 ± 52%
Structure (SMILES) = Cc1cnc(C(=O)N[C@H]2CCCCC/C=C\[C@@H]3C[C@@]3(C(=O)NS(=O)(=O)C3CC3)NC(=O)[C@@H]3C[C@@H](Oc4nc5ccccc5c5ccccc45)CN3C2=O)cn1; system = healthy human volunteers, plasma; conditions = oral, dose not given, alone, pravastatin interaction study; measurement = AUC(0-24); result = 1610 ng·h/mL
Structure (SMILES) = O[C@H]1CCCN[C@@H]1CCCn1cnc2c(Cl)c(Cl)ccc21; system = rat; conditions = multiple-dose up to 28 days; measurement = NOAEL; result = 200 mg/kg/day
Structure (SMILES) = CC(=O)N[C@H](CCCCNC(=O)C(C)F)C(=O)N[C@@H](CS)C(=O)N[C@@H](CS)C(=O)N[C@@H](CCC(=O)O)C(=O)N[C@@H](Cc1c[nH]cn1)C(=O)N[C@H](Cc1ccccc1)C(=O)N[C@@H](CCCNC(=N)N)C(=O)N[C@@H](Cc1c[nH]c2ccccc12)C(=O)N[C@@H](CS)C(=O)N[C@@H](CCCNC(=N)N)C(=O)N1CCC[C@H]1C(=O)N[C@H](C(N)=O)C(C)C (stereo partly drawn) [fluorine-18 labelled]; system = C57BL/6 mice, male, B16-F10 tumour, intestine; conditions = intravenous, 4 h; measurement = tissue uptake; result = 0.29 ± 0.18 %ID/g
Structure (SMILES) = CN1CCC(Nc2ncc3ncnc(Nc4ccc(F)c(Cl)c4)c3n2)CC1; system = cynomolgus monkey male, hepatic S9; conditions = 1 µM, pH 7.4, added: without NADPH; measurement = CLint; result = 209 ± 19.6 mL/min/kg
Structure (SMILES) = CCCN1C[C@H](C)N([C@H](c2ccc(C(=O)N(CC)CC)cc2)c2cccc(OC)c2)C[C@H]1C; system = rat; conditions = no efflux inhibition; measurement = log intrinsic permeability; result = -4.06
Structure (SMILES) = COc1ccc(-c2cc(=O)c3c(OC)c(OC)c(OC)c(OC)c3o2)cc1OC; system = C57BL/6 mouse, male, brain; conditions = oral, 1% w/w in diet, 6 weeks, orange peel extract diet; scale = reference: content in orange peel; measurement = tissue to peel content ratio; result = 0.014%
Structure (SMILES) = CCCCCOc1ccc(-c2ccc(-c3ccc(C(=O)N[C@H]4C[C@@H](O)[C@@H](O)NC(=O)[C@@H]5[C@@H](O)[C@@H](C)CN5C(=O)[C@H]([C@@H](C)O)NC(=O)[C@H]([C@H](O)[C@@H](O)c5ccc(O)cc5)NC(=O)[C@@H]5C[C@@H](O)CN5C(=O)[C@H]([C@@H](C)O)NC4=O)cc3)cc2)cc1; system = adult patients; conditions = iv, dose not given, 2, during treatment; measurement = patients with hepatic adverse events; result = 9.1%
Structure (SMILES) = CCCCCCCCCCCC[N+](C)(C)CCCCCCCCCCCC; test = substrate depletion; system = human liver microsomes; conditions = 0.5 µM, 0 to 3 h, 37 °C, added: NADPH; measurement = intrinsic clearance; result = 0.161 mL/h/mg protein

Excerpt of the above:
Structure (SMILES) = CN1CCC(Nc2ncc3ncnc(Nc4ccc(F)c(Cl)c4)c3n2)CC1; system = cynomolgus monkey male, hepatic S9; conditions = 1 µM, pH 7.4, added: without NADPH; measurement = CLint; result = 209 ± 19.6 mL/min/kg
Structure (SMILES) = CCCN1C[C@H](C)N([C@H](c2ccc(C(=O)N(CC)CC)cc2)c2cccc(OC)c2)C[C@H]1C; system = rat; conditions = no efflux inhibition; measurement = log intrinsic permeability; result = -4.06
